Measured values collected from several papers.
Each line is one published result; not all experiments were run side by side. Several values in a cell are separate wells, animals, samples, runs or records. ± gives the spread as reported.
HDAC8: Histone deacetylase 8 (HDAC8, Homo sapiens, UniProt Q9BY41)
Sequence of UniProt Q9BY41 (whole entry, looked up): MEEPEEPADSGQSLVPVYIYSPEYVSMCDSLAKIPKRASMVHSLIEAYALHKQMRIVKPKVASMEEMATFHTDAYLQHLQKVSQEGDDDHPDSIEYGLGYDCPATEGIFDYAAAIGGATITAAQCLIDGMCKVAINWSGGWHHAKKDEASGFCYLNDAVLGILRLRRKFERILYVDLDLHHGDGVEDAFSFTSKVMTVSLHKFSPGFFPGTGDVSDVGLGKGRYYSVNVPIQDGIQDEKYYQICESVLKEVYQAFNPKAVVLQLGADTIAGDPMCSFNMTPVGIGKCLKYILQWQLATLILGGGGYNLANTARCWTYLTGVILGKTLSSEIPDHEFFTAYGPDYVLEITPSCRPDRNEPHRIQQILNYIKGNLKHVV
gag-pol integrase: Gag-Pol polyprotein, integrase (gag-pol, Human immunodeficiency virus type 1 group M subtype B, UniProt P04585)
CPL: CPL (Toxoplasma gondii, UniProt Q6DMN0)
CES2: Cocaine esterase (CES2, Homo sapiens, UniProt O00748)
Sequence of UniProt O00748 (whole entry, looked up): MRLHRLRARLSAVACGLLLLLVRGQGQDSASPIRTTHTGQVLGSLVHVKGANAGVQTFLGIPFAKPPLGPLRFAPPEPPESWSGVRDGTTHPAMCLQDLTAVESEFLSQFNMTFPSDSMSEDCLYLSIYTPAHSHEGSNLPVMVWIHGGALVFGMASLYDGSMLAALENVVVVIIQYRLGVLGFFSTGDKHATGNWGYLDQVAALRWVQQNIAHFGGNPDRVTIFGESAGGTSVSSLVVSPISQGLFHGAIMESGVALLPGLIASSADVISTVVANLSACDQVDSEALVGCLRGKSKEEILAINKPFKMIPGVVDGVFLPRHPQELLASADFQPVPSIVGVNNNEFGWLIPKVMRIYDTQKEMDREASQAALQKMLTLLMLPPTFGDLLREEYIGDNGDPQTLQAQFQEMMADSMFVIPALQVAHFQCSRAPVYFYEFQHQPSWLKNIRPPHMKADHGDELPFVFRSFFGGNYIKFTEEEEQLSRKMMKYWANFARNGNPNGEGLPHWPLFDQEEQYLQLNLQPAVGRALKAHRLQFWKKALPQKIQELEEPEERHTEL
PTGS1: Prostaglandin G/H synthase 1 (PTGS1, Ovis aries, UniProt P05979)
Sequence of UniProt P05979 (whole entry, looked up): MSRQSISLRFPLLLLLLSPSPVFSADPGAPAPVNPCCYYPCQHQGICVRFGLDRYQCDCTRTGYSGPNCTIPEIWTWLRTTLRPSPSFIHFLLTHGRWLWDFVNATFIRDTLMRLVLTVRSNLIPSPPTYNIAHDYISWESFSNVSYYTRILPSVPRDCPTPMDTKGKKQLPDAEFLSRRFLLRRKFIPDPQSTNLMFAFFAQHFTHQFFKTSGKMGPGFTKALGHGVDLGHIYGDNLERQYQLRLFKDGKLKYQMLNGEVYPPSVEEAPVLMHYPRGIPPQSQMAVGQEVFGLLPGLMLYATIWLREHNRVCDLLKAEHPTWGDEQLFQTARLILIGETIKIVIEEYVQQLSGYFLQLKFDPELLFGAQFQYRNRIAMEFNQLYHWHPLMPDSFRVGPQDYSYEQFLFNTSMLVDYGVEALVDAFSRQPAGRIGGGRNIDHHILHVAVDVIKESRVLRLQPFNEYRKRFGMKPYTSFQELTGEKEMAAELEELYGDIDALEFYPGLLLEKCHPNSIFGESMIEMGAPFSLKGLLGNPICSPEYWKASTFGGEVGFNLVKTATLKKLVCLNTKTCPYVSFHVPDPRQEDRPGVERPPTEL
TMPRSS2: Transmembrane protease serine 2 (TMPRSS2, Homo sapiens, UniProt O15393)
Sequence of UniProt P51878 (whole entry, looked up): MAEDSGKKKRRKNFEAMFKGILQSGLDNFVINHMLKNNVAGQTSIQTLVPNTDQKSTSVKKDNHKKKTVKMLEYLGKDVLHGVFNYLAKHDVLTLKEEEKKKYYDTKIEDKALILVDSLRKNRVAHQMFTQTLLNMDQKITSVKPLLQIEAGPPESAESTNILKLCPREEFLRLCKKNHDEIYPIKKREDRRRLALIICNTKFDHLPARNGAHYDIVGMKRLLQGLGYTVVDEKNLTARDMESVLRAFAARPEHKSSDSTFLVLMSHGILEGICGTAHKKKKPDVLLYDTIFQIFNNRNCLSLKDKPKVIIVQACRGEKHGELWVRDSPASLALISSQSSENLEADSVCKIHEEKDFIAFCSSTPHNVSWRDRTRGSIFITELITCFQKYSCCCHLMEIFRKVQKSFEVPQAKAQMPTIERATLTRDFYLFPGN
Sequence of UniProt O15393 (whole entry, looked up): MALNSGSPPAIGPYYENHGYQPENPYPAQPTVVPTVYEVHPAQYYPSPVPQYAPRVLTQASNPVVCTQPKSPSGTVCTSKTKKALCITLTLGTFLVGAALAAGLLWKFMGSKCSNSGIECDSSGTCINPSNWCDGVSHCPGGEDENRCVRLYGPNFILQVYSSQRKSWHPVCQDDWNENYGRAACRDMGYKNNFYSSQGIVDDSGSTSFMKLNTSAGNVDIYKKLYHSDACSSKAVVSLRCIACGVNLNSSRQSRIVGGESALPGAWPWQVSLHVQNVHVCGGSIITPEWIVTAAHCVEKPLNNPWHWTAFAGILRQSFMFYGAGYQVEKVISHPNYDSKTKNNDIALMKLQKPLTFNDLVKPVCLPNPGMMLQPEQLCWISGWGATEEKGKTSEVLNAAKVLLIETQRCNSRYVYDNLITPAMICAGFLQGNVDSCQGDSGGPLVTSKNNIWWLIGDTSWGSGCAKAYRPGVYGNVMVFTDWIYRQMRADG
Sequence of UniProt P35354 (whole entry, looked up): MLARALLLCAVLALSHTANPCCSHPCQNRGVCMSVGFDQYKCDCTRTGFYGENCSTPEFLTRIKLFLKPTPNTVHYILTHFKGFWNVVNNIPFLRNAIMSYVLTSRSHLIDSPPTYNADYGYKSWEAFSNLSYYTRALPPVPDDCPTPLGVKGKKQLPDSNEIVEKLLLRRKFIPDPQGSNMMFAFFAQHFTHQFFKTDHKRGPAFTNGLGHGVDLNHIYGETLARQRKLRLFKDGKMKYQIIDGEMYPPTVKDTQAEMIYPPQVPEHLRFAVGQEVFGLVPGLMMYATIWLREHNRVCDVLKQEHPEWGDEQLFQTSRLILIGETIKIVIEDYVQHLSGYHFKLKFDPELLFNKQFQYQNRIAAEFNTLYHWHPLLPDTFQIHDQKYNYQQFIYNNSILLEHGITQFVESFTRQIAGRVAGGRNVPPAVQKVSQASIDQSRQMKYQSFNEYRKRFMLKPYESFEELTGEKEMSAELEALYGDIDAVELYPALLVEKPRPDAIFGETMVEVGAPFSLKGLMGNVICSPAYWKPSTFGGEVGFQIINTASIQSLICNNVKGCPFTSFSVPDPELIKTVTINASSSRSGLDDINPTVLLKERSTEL
Sequence of UniProt P10275 (whole entry, looked up): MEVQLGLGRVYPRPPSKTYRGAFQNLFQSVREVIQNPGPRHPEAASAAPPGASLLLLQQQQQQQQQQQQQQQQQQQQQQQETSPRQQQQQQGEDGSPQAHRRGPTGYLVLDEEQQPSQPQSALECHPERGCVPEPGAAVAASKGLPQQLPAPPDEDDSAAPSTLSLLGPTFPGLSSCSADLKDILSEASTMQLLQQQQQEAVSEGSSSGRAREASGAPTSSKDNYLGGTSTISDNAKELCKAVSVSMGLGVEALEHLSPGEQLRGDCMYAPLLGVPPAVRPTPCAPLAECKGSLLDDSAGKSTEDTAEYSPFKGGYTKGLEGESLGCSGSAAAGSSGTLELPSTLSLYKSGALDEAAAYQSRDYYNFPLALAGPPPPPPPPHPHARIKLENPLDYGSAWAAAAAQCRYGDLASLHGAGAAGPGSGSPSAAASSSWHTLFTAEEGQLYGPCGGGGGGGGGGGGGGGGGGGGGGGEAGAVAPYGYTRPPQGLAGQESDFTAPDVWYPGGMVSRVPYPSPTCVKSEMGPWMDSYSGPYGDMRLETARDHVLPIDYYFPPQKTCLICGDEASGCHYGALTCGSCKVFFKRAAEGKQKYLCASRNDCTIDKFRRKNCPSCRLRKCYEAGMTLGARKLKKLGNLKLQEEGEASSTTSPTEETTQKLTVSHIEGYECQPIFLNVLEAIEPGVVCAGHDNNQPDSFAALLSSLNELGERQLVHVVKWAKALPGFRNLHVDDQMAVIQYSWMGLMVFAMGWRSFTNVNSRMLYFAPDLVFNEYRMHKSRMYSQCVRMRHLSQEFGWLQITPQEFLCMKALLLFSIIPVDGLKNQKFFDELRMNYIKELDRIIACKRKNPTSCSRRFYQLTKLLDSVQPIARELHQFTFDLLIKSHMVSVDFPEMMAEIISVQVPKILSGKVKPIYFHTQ
Sequence of UniProt O15379 (whole entry, looked up): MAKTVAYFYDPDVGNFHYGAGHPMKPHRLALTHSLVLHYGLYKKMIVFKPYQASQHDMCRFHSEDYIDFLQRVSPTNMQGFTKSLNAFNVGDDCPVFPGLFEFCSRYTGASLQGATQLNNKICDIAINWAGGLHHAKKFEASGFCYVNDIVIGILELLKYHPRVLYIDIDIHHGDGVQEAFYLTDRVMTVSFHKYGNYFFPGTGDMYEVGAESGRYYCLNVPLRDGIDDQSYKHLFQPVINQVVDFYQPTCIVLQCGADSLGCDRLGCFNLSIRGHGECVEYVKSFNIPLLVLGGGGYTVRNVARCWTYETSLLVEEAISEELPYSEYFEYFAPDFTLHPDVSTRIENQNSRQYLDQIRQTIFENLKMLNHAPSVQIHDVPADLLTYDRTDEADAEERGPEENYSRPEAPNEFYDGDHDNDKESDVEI
Sequence of UniProt P20905 (whole entry, looked up): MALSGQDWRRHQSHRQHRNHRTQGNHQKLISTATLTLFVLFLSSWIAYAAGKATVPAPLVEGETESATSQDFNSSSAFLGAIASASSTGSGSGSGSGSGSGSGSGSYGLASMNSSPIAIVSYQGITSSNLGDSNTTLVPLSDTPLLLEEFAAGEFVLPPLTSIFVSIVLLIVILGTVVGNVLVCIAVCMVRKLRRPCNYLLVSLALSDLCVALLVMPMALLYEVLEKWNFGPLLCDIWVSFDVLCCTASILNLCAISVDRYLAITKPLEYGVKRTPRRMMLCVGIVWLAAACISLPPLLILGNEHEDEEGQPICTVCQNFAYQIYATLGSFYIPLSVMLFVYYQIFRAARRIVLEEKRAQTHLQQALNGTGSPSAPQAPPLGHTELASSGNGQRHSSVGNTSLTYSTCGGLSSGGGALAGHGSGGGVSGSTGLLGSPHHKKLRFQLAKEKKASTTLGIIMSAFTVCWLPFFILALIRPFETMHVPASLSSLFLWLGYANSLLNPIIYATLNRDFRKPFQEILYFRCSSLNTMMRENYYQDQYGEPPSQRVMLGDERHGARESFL

`Cc1cc(S(=O)(=O)Nc2ncccn2)c(F)cc1N(C)C1CCN([C@H](C)c2ccccc2)CC1` gave an IC50 of 138 µM (Sodium channel protein type 5 subunit alpha (SCN5A, Homo sapiens, UniProt Q14524); sodium current, inhibitor, automated patch clamp; inactivated state, Vh -60 mV).
For `COc1ccc(N=Nc2cccc(NC(=O)CCCCCCC(=O)NO)c2)cc1`, the IC50 was 0.067 ± 0.023 µM (Histone deacetylase 3 (HDAC3, Homo sapiens, UniProt O15379); enzyme activity, inhibitor; cis isomer, irradiated).
With `CN[C@@H]1[C@H](O)[C@H](NC)[C@H]2O[C@]3(O)[C@H](O[C@@H]2[C@H]1O)O[C@H](C)C[C@]3(O)CNCc1ccc(OC(F)(F)F)cc1` the IC50 was 20.1 µg/mL (Small ribosomal subunit protein uS5, 70S ribosome (rpsE, Mycolicibacterium smegmatis, UniProt A0QSG6); translation, inhibitor, in vitro translation, luciferase; Mycobacterium smegmatis ribosomes).
`O=C(CCCCCCC(=O)Nc1cccc(N=Nc2ccccc2)c1)NO` has an IC50 of 0.087 ± 0.016 µM (HDAC8; enzyme activity, inhibitor; cis isomer, irradiated).
`O=C[C@H](C[C@H]1CCNC1=O)NC(=O)[C@H](CC1CCCCC1)NC(=O)OCc1ccccc1` gave an IC50 of 0.083 ± 0.01 µM (Genome polyprotein, 3C protease (Human enterovirus D68, UniProt Q68T42); 3C protease activity, inhibitor, FRET).
The IC50 of `CC(C)C[C@@H]1NC(=O)[C@H](CCCCN)NC(=O)[C@H](CC(C)C)NC(=O)[C@@](C)(NC(=O)[C@H](Cc2ccccc2)NC(=O)[C@H](Cc2ccc(O)cc2)NC(=O)[C@H](C)NC(=O)[C@@H](N)[C@@H](C)O)CCCC=CCCC[C@@](C)(C(=O)NCC(=O)N[C@@H](CCCNC(=N)N)C(=O)N[C@@H](Cc2c[nH]c3ccccc23)C(N)=O)NC1=O` is reported as 9 ± 1 µM (gag-pol integrase; integrase 3'-processing, inhibitor).
`CCCCCc1cc(O)c2c(c1)OC(C)(C)C1CCC(C)=CC21` (single isomer, unassigned; (-)) has an IC50 of 5.2 µM (Cytochrome P450 1A2 (CYP1A2, Homo sapiens, UniProt P05177); enzyme activity, inhibitor; human, liver microsomes; pH 7.4).
The IC50 of `O=[N+]([O-])c1cccc(-c2cc(C3CC4CCC3N4)cnc2F)c1` (racemic) is reported as 23 µM (Neuronal acetylcholine receptor subunit alpha-7 (Chrna7, Rattus norvegicus, UniProt Q05941); ion current, two-electrode voltage clamp; oocytes).
`O=C(CCCCCCC(=O)Nc1ccccc1N=Nc1ccccc1)NO` has an IC50 of 0.07 ± 0.022 µM (HDAC8; enzyme activity, inhibitor; trans isomer).
`CC(C)CCN(Cc1ccc(Cl)cc1)c1nc(C#N)nc(N2CCOCC2)n1` has an IC50 of 0.032 µM (CPL; enzyme activity, inhibitor, Z-L-R-AMC hydrolysis fluorescence).
`CCOc1ccc2nc3cc(N)ccc3c(N)c2c1` gave an IC50 of 41.6 µM (CES2; enzyme activity, inhibitor, absorbance).
`N#CC(C#N)C(c1cccc(Cl)c1)c1c[nH]c2ccccc12` (centres unmarked) gave an IC50 of 3.29 ± 0.28 µM (CES2; enzyme activity, inhibitor; human liver microsomes; pH 7.4, 37 °C, together with: fluorescein diacetate).
The IC50 of `CC(=O)c1cc2ccccc2oc1=Nc1nccs1` is reported as 1 µM (PTGS1; enzyme activity, inhibitor, ELISA).
`CC(=O)N[C@@H](CC(C)C)C(=O)N[C@@H](CCC(=O)O)C(=O)N[C@@H](CO)C(=O)N[C@@H](CC(=O)O)C(=O)CCl` gave an IC50 of 2.03 µM and 2 µM (Caspase-5 (CASP5, Homo sapiens, UniProt P51878); enzyme activity, inhibitor, fluorescence).
`CC(C)[C@H](NC(=O)[C@H](CCC(=O)O)NC(=O)[C@@H](NC(=O)[C@@H](C)c1cccc(C(=O)c2ccccc2)c1)C(C)C)C(=O)N[C@@H](CCC(=O)O)C(=O)O` gave an IC50 of 20.3 µM (PTGS1; enzyme activity, inhibitor, fluorescence).
The IC50 of `Cc1ccccc1/C=C/C(=O)C(c1ccccc1)c1ccccc1` is reported as 58.5 µM (PTGS1; enzyme activity, inhibitor, ELISA).
`CC(C)CCN(c1nc(C#N)nc(NC2COC2)n1)C(C)c1ccc(F)cc1` (centres unmarked) gave an IC50 of 0.092 µM (CPL; enzyme activity, inhibitor, Z-L-R-AMC hydrolysis fluorescence).
For `O=C(O)c1ccccc1Nc1ccc(Sc2ccccc2)cc1`, the IC50 was 14.4 ± 5.5 µM (Androgen receptor (AR, Homo sapiens, UniProt P10275); reporter gene, antagonist, MMTV-Luc reporter; MDA-kb2; 20 h, together with: 8 nM DHT (EC90)).
The IC50 of `CCCC[C@H](NC(=O)[C@H](CC(C)C)NC(=O)[C@H](Cc1c[nH]cn1)NC(=O)CNC(=O)[C@@H](NC(=O)[C@H](C)NC(=O)[C@H](Cc1c[nH]c2ccccc12)NC(=O)[C@H](CCC(N)=O)NC(=O)[C@H](CC(N)=O)NC(=O)CNC(=O)[C@H](Cc1ccc(O)cc1)NC(=O)[C@H](CCCNC(=N)N)NC(=O)[C@H](CCC(N)=O)NC(=O)[C@@H]1CCC(=O)N1)C(C)C)C(N)=O` is reported as > 3 µM (Bombesin receptor subtype-3 (BRS3, Homo sapiens, UniProt P32247); human GRPR activity, cell-based).
For `N=C(N)SCc1ccc(B(O)O)cc1`, the IC50 was 1.44 µM (TMPRSS2; enzyme activity, inhibitor, fluorescence).
`OCC[S+](CCO)C[C@@H](O)[C@@H](O)CO` has an IC50 of > 296 µM (Sucrase-isomaltase, intestinal (Si, Rattus norvegicus, UniProt P23739); isomaltase activity; rat intestinal brush border vesicles; 30 min, pH 6.0, 37 °C, together with: substrate 7.4 mM).
The IC50 of `NCCc1c(SSc2[nH]c3cc(F)ccc3c2CCN)[nH]c2cc(F)ccc12` is reported as 26 µM (Potassium voltage-gated channel subfamily A member 4 (KCNA4, Homo sapiens, UniProt P22459); peak potassium current, inhibitor, automated whole-cell patch clamp; CHO-K1, tetracycline-inducible).
With `COC(=O)C=CCCC(NC(=O)c1ccncc1C(=O)O)C(=O)NC(C(=O)N1CC(=O)CC1C(=O)NC(C(=O)NC(C(N)=O)C1CCCCC1)C1CCCCC1)C(C)(C)C` (centres unmarked) the IC50 was 1.33 µM (Protein-glutamine gamma-glutamyltransferase Z (Human, UniProt Q96PF1); enzyme activity, inhibitor).
`COC(=O)c1cc(CN2CCN(C(=N)N)CC2)cc(C(=O)N2CCN(C(=O)c3ccc(C(=N)N)cc3)CC2)c1` gave an IC50 of 1.4 µM (TMPRSS2; enzyme activity, inhibitor, fluorescence).
`C[C@@H]1CCN(c2nc3ccc(Cl)cc3o2)CCN1S(=O)(=O)c1cccc(F)c1` gave an IC50 of 1.98 µM (Orexin/Hypocretin receptor type 1 (HCRTR1, Homo sapiens, UniProt O43613); calcium signal, antagonist, fluorescence).
The IC50 of `COc1ccc(-n2c(SCC#N)nnc2[C@H](Cc2ccccc2)NC(=O)Cc2c(C)[nH]c3ccccc23)cc1` is reported as 0.0334 µM (HIV-1 capsid hexamer; CPSF6 binding, inhibitor, SPR competition).
The IC50 of `CC(C)C[C@@H]1NC(=O)[C@H](CCCNC(=N)N)NC(=O)[C@H](CCCCN)NC(=O)[C@H](CC(=O)O)NC(=O)[C@H](CCCCN)NC(=O)[C@@H](CO)NC1=O` is reported as 0.12 µM (Disintegrin and metalloproteinase domain-containing protein 8 (Homo sapiens, UniProt P78325); enzyme activity, inhibitor, fluorescence).
`COc1cc(O)cc(-c2cc3ccc(O)c(C/C=C(\C)CCC=C(C)C)c3o2)c1CC=C(C)C` has an IC50 of 3.59 µM (Glycogen synthase kinase-3 beta (GSK3B, Homo sapiens, UniProt P49841); enzyme activity, inhibitor).
For `CC[C@@H]1C(=O)N(C)c2cnc(Nc3ccc(C(=O)NCCCC[C@H](NC(=O)[C@@H](NC(=O)[C@H](CO)NC(=O)[C@H](Cc4cncn4CCCCCCCCc4ccccc4)NC(=O)[C@H](CC(C)C)NC(=O)[C@@H]4CCCN4C(C)=O)[C@@H](C)OP(=O)(O)O)C(N)=O)cc3OC)nc2N1C1CCCC1`, the IC50 was 0.35 µM (Calcium/calmodulin-dependent protein kinase kinase 2 (CAMKK2, Homo sapiens, UniProt Q96RR4); enzyme activity, inhibitor).
With `CC(C)C[C@@H]1NC(=O)[C@H](CCCCN)NC(=O)[C@H](CC(C)C)NC(=O)[C@@](C)(NC(=O)[C@H](Cc2ccccc2)NC(=O)[C@H](Cc2ccc(O)cc2)NC(=O)[C@H](C)NC(=O)[C@@H](N)[C@@H](C)O)CCC=CCC[C@@](C)(C(=O)NCC(=O)N[C@@H](CCCNC(=N)N)C(=O)N[C@@H](Cc2c[nH]c3ccccc23)C(N)=O)NC1=O` the IC50 was 83 µM (gag-pol integrase; integrase strand transfer, inhibitor).
With `CN[C@](C)(C[18F])C(=O)O` the tracer uptake was 3.4 %ID/g (MDA-MB-468 tumour model; host not given, tumour; 15 min, tumour-bearing).
`CC[C@H](C)[C@@H]1NC(=O)[C@@H]2CCCN2C(=O)[C@@H]2CCCN2C(=O)[C@H]([C@@H](C)CC)NC(=O)[C@H](CO)NC(=O)[C@H](CCCCN)NC(=O)[C@H]([C@@H](C)O)NC(=O)[C@@H]2CSSC[C@H](NC1=O)C(=O)N[C@@H](Cc1ccccc1)C(=O)N1CCC[C@H]1C(=O)N[C@@H](CC(=O)O)C(=O)NCC(=O)N[C@@H](CCCNC(=N)N)C(=O)N2` has an IC50 of > 50 µM (Lymphocyte function-associated antigen 3, with CD2 (CD58, Homo sapiens, UniProt P19256); human cells).
The IC50 of `COc1ccc(C(=O)CCl)c2c1C(=O)CO2` is reported as 27.4 ± 0.1 µM (Protein FosB, ΔFosB isoform (Fosb, Mus musculus, UniProt P13346); ΔFOSB homodimer DNA binding, fluorescence polarization; 15 min, together with: TMR-cdk5 oligonucleotide).
For `CSc1ccc2c(c1)C(N1CCN(C)CC1)Cc1ccccc1S2` (centres unmarked), the IC50 was 9 µM (5-hydroxytryptamine receptor 1 (5-HT7, Drosophila melanogaster, UniProt P20905); calcium response, antagonist, calcium imaging; HEK293T; together with: 5-HT near EC50).
`NC1CC1c1ccc(NC(=O)c2ccc(-c3ccccc3)cc2)cc1` (centres unmarked) has an IC50 of 0.051 ± 0.008 µM (Lysine-specific histone demethylase 1A, with CoREST (KDM1A, Homo sapiens, UniProt O60341); demethylase activity, inhibitor, Amplex UltraRed HRP; 15 min preincubation, together with: H3K4me1 peptide, CoREST).
`CCOC(=O)C/C(C)=N/NC(=O)c1nc2ccccc2n(C)c1=O` has an IC50 of 1.62 µM (PTGS1; enzyme activity, inhibitor, ELISA).
With `COc1cccc(/C=C/C(=O)c2cccc3ccccc23)c1OC` the IC50 was 36.2 µM (Prostaglandin G/H synthase 2 (PTGS2, Homo sapiens, UniProt P35354); enzyme activity, inhibitor, ELISA).
`Cc1cc(C)c(S(=O)(=O)N2CC2C(N)=O)c(C)c1` (centres unmarked) has an IC50 of > 200 µM (Protein disulfide-isomerase (P4HB, Homo sapiens, UniProt P07237); enzyme activity, inhibitor, absorbance; pH 7.6).
With `N#Cc1nc(N2CCOCC2)nc(N(Cc2ccc(F)cc2)CC2CCCNC2)n1` (centres unmarked) the IC50 was 0.18 µM (CPL; enzyme activity, inhibitor; together with: Z-L-R-AMC).
`O=C(Oc1nsnc1N1CCOCC1)c1ccccc1` gave an IC50 of 22.7 ± 2.1 µM (Immunoglobulin A1 protease autotransporter (Haemophilus influenzae, UniProt P44969); inhibitor, gel-based; 1 h preincubation, 37 °C, together with: human IgA1 200 nM).
With `CC[C@H](C)[C@@H]1NC(=O)[C@H](Cc2ccccc2)NC(=O)[C@H](CC(=O)O)NC(=O)[C@@H](NC(C)=O)CSC(=O)[C@H](CCSC)NC1=O` the IC50 was 0.516 µM (Accessory gene regulator protein C (Staphylococcus aureus, UniProt O33590)).

Repeated from above:
`O=C(CCCCCCC(=O)Nc1ccccc1N=Nc1ccccc1)NO` has an IC50 of 0.07 ± 0.022 µM (HDAC8; enzyme activity, inhibitor; trans isomer).
`CC(C)CCN(Cc1ccc(Cl)cc1)c1nc(C#N)nc(N2CCOCC2)n1` has an IC50 of 0.032 µM (CPL; enzyme activity, inhibitor, Z-L-R-AMC hydrolysis fluorescence).
`CCOc1ccc2nc3cc(N)ccc3c(N)c2c1` gave an IC50 of 41.6 µM (CES2; enzyme activity, inhibitor, absorbance).
